Published values pooled from the literature.
A part holds a random share of what one study measured. Several values in a cell are separate wells, animals, samples, runs or records.
UniProt Q9H2X6, sequence (whole entry, looked up): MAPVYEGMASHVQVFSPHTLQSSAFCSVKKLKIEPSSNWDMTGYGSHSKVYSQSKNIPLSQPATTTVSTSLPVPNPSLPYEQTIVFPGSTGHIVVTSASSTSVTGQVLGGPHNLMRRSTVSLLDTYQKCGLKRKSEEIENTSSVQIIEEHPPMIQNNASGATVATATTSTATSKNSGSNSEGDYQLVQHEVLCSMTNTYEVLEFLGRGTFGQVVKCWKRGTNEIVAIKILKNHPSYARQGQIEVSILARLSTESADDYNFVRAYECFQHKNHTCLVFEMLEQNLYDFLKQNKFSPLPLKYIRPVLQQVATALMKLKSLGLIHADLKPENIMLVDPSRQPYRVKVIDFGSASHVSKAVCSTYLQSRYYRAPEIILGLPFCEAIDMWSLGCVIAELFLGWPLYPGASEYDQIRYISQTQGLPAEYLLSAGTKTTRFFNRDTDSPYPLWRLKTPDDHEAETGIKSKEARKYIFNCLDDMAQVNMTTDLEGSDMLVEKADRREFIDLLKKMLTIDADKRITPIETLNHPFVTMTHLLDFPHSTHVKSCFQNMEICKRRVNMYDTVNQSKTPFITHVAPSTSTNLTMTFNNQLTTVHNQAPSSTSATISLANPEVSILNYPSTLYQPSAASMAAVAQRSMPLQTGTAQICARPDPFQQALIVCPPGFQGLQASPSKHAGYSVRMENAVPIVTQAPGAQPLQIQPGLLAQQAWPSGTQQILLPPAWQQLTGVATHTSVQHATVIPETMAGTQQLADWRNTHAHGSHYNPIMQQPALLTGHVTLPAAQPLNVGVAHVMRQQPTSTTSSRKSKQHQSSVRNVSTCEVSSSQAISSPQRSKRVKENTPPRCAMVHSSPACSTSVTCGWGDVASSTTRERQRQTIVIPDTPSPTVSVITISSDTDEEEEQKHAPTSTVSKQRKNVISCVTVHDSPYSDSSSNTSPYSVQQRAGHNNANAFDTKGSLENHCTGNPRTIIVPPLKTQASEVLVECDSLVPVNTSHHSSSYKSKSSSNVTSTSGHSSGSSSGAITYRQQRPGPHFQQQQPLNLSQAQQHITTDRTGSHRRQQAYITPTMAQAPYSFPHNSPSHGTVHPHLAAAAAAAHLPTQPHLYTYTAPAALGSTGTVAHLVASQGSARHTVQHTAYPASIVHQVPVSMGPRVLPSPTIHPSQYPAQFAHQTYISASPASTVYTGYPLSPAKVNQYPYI
UniProt Q9H3Y6, sequence (whole entry, looked up): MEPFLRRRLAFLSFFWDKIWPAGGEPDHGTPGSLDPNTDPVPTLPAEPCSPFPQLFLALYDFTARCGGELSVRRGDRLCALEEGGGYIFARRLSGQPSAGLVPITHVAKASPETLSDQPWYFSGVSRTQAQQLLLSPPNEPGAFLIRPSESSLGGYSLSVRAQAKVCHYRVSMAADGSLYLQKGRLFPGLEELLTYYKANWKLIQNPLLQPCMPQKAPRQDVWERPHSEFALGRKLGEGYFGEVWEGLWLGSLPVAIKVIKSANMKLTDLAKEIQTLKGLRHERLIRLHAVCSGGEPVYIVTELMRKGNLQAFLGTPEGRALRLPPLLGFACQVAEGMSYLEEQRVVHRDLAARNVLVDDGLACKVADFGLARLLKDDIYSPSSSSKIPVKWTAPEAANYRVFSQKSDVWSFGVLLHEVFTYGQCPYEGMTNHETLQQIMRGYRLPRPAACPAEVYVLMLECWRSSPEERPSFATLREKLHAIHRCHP
UniProt Q9UEE5, sequence (whole entry, looked up): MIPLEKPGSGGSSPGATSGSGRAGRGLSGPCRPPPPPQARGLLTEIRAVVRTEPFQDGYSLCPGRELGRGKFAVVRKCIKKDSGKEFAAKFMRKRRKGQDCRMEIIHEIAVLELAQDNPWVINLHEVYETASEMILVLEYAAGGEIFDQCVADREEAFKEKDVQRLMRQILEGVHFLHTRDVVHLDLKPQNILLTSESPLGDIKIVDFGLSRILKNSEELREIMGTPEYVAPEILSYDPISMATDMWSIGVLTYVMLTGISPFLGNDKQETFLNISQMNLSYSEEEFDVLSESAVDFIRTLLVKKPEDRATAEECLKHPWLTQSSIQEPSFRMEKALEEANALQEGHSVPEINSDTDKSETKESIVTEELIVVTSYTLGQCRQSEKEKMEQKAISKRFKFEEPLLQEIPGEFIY
UniProt P0C264, sequence (whole entry, looked up): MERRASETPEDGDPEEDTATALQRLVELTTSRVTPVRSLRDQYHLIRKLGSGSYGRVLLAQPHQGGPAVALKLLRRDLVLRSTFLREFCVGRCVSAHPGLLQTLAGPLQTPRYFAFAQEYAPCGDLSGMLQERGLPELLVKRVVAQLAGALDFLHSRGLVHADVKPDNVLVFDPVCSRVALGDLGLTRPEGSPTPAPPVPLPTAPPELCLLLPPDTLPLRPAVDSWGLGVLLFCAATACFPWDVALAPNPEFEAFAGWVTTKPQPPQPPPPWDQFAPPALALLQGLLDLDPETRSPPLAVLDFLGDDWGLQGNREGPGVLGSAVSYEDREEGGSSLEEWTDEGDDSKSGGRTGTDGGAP

Sample 1 — effect on: enzyme activity; mode: inhibitor; concentration: 77 µM; baseline: untreated
Target: DNA polymerase theta, ATPase domain (POLQ, Homo sapiens, UniProt O75417)
UniProt O75417, sequence (whole entry, unmodified, looked up): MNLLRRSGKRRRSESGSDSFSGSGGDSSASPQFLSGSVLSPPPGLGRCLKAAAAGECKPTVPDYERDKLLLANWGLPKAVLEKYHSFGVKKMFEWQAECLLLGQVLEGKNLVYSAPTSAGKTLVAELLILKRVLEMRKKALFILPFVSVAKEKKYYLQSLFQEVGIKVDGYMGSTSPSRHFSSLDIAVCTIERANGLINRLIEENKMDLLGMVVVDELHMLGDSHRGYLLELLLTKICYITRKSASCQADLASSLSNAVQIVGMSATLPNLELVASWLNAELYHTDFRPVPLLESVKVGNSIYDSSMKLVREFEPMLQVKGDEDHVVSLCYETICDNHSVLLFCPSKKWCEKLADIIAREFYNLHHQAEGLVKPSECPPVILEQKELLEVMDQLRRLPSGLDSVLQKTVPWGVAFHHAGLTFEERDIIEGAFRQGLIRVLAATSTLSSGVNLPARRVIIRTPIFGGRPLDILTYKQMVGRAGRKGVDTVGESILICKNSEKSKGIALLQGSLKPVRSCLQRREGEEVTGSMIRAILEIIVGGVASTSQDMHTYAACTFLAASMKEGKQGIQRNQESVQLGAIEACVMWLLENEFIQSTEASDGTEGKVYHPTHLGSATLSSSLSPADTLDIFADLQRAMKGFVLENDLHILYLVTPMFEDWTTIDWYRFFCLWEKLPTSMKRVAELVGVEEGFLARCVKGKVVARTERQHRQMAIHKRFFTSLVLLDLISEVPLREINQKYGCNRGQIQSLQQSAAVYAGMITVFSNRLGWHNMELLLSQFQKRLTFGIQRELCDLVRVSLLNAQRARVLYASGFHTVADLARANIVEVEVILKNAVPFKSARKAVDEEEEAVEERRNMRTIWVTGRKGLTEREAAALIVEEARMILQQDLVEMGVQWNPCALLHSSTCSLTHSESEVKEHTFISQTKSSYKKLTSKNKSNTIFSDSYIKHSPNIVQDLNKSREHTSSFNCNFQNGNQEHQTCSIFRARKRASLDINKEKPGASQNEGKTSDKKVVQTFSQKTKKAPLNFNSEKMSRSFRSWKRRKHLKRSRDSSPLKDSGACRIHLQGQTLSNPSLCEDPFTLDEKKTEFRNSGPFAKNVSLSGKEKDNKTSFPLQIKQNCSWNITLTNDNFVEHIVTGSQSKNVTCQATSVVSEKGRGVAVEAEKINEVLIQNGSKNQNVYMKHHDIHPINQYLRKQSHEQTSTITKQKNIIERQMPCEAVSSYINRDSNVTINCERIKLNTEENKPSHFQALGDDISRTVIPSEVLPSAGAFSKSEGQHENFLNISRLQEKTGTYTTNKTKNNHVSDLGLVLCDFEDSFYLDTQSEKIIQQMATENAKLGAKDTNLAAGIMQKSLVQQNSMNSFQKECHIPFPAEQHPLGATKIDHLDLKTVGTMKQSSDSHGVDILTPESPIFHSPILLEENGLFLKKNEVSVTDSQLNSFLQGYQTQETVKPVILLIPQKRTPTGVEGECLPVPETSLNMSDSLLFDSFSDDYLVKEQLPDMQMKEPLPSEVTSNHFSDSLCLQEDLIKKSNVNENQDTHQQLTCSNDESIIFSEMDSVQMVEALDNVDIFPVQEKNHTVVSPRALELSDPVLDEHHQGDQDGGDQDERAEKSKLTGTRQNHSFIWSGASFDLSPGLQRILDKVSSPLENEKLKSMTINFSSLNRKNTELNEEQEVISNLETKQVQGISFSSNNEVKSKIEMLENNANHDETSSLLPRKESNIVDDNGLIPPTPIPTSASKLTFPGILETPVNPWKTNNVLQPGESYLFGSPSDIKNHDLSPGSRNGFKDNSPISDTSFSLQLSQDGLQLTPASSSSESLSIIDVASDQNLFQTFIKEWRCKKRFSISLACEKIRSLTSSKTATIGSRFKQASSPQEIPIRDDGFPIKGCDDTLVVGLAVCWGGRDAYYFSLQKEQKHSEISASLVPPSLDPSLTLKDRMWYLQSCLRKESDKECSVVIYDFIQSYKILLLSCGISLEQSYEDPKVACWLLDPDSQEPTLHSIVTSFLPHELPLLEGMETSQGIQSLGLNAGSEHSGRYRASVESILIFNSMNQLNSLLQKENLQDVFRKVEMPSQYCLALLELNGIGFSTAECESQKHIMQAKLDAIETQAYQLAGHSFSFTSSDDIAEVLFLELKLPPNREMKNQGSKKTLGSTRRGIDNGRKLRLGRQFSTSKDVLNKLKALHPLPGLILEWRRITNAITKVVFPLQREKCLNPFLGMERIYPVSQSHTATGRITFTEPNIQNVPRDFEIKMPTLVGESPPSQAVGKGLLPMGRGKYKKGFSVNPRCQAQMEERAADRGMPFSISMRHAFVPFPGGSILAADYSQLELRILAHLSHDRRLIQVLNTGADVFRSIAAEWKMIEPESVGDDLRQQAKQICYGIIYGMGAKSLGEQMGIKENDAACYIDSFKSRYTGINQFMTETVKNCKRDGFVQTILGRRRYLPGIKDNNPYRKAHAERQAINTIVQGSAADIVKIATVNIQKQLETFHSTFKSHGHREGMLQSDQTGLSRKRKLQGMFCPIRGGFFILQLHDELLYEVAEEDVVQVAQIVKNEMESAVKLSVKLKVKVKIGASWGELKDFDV
For Nc1nc2n[nH]nc2c(=O)[nH]1, the remaining activity was 99.4% and 85.3%.
Cc1[nH]c(/C=C2\C(=O)Nc3ccc(S(=O)(=O)N(C)c4cccc(Cl)c4)cc32)c(C)c1C(=O)N1CCN(C)CC1 has a remaining activity of 102%.
O=Nc1ccc2oc(=O)ccc2c1 gave a remaining activity of 102%.
With C[N+](C)(C)CC(=O)O the remaining activity was 109%.
COC(=O)C[C@H](NC(=O)[C@H](C)NC(=O)[C@@H](NC(=O)OCc1ccccc1)C(C)C)C(=O)CF gave a remaining activity of 104%.
N[C@H](CO)C(=O)O gave a remaining activity of 102%.

Sample 2 — effect on: cell-free assay; method: competition with immobilised ligand; concentration: 1 µM
SMILES: CN(C(=O)c1ccccc1)c1cc(N(C)c2ccc3c(c2)CCc2ccc(C(=O)NCCN4CCOCC4)cc2C3=O)ccc1F
For HIPK2 (Homo sapiens, UniProt Q9H2X6): remaining binding read 100%.
For SRMS (Homo sapiens, UniProt Q9H3Y6): remaining binding read 77%.
It gave 77% for remaining binding (MET (Homo sapiens, UniProt P08581)).
For PIK3CD (Homo sapiens, UniProt O00329): remaining binding read 100%.
For CLK1 (Homo sapiens, UniProt P49759): remaining binding read 86%.
TNK2 (Homo sapiens, UniProt Q07912) — remaining binding: 100%.
It gave 100% for remaining binding (STK4 (Homo sapiens, UniProt Q13043)).
It gave 93% for remaining binding (SGK3 (Homo sapiens, UniProt Q96BR1)).
MYLK (Homo sapiens, UniProt Q15746) — remaining binding: 100%.
For KIT (Homo sapiens, UniProt P10721, D816V): remaining binding read 82%.
SRPK2 (Homo sapiens, UniProt P78362) — remaining binding: 100%.
LATS2 (Homo sapiens, UniProt Q9NRM7) — remaining binding: 98%.
It gave 100% for remaining binding (ROCK1 (Homo sapiens, UniProt Q13464)).
The remaining binding was 100% (EPHA5 (Homo sapiens, UniProt P54756)).
For SBK3 (Homo sapiens, UniProt P0C264): remaining binding read 84%.
For SNRK (Homo sapiens, UniProt Q9NRH2): remaining binding read 83%.
It gave 82% for remaining binding (STK38 (Homo sapiens, UniProt Q15208)).
It gave 97% for remaining binding (RIPK1 (Homo sapiens, UniProt Q13546)).
STK3 (Homo sapiens, UniProt Q13188) — remaining binding: 100%.
The remaining binding was 100% (KIT (Homo sapiens, UniProt P10721, A829P)).
For NEK10 (Homo sapiens, UniProt Q6ZWH5): remaining binding read 100%.
For TNK1 (Homo sapiens, UniProt Q13470): remaining binding read 94%.
For YES1 (Homo sapiens, UniProt P07947): remaining binding read 100%.

Sample 3 — SMILES: COc1ccc(COc2ccc(Cc3cnc(N)nc3N)cc2OC)cc1; effect on: enzyme activity; mode: inhibitor; concentration: 0.5 µM; baseline: control
It gave 94.5% for remaining activity (Cyclin-dependent kinase 6, with cyclin D3 (CDK6, Homo sapiens, UniProt Q00534)).
MAPKAPK3 (Homo sapiens, UniProt Q16644) — remaining activity: 96%.
The remaining activity was 99% (MAP4K4 (Homo sapiens, UniProt O95819)).
For AXL (Homo sapiens, UniProt P30530): remaining activity read 96.5%.
The remaining activity was 98.6% (BLK (Homo sapiens, UniProt P51451)).
Cyclin-dependent kinase 4, with cyclin D3 (CDK4, Homo sapiens, UniProt P11802) — remaining activity: 107%.
It gave 103% for remaining activity (RPS6KA5 (Homo sapiens, UniProt O75582)).
For EPHB1 (Homo sapiens, UniProt P54762): remaining activity read 103%.
SRMS (Homo sapiens, UniProt Q9H3Y6) — remaining activity: 95.9%.
STK17A (Homo sapiens, UniProt Q9UEE5) — remaining activity: 102%.
The remaining activity was 103% (HIPK2 (Homo sapiens, UniProt Q9H2X6)).
For TSSK2 (Homo sapiens, UniProt Q96PF2): remaining activity read 109%.
DYRK3 (Homo sapiens, UniProt O43781) — remaining activity: 108%.
WNK3 (Homo sapiens, UniProt Q9BYP7) — remaining activity: 100%.
It gave 106% for remaining activity (STK16 (Homo sapiens, UniProt O75716)).
The remaining activity was 91.3% (Cyclin-dependent kinase 1, with cyclin B (CDK1, Homo sapiens, UniProt P06493)).
PHKG1 (Homo sapiens, UniProt Q16816) — remaining activity: 95.3%.
The remaining activity was 105% (EPHA4 (Homo sapiens, UniProt P54764)).

Sample 4 — species: human; matrix: microsomes or S9; concentration: 2 µM; time: 0.5 h
O=C(Nc1ccccc1)c1cn2c(n1)C(c1ccccc1)N(C(=O)c1ccccc1)CC2 (centres unmarked) has a remaining compound of > 100%.
CC(C)OCCCNCc1ccccc1OCc1ccc(Cl)cc1Cl gave a remaining compound of 25.3%.
With COC(=O)c1c(NC(=O)N2CCN(C(=O)C(C)C)CC2)sc2c1CC(C)(C)OC2 the remaining compound was 88%.
Cc1ccccc1/N=C1\Nc2cccc3cccc1c23 has a remaining compound of 2.77%.
Cc1ccc(NC(=O)N2Cc3c(sc4c3CCCC4)-n3cccc3C2c2ccc(N(C)C)cc2)c(C)c1 (centres unmarked) gave a remaining compound of 18.9%.
For O=C1Nc2ccccc2C1(c1c[nH]c2ccccc12)c1c[nH]c2ccccc12, the remaining compound was 79.1%.
With CS(=O)(=O)N1N=C(c2cccs2)CC1c1ccccc1F (centres unmarked) the remaining compound was 43%.
For Cc1nn(CC(C)C)c2sc(C(=O)N3CCN(CC(=O)NC4CC4)CC3)cc12, the remaining compound was > 100%.
The remaining compound of CC1=C2C(CCS2(=O)=O)CC2(C1)C(=O)OC(C)(C)OC2=O (centres unmarked) is reported as > 99%.

Excerpt of the above (sample 2):
For PIK3CD (Homo sapiens, UniProt O00329): remaining binding read 100%.
For CLK1 (Homo sapiens, UniProt P49759): remaining binding read 86%.
TNK2 (Homo sapiens, UniProt Q07912) — remaining binding: 100%.
It gave 100% for remaining binding (STK4 (Homo sapiens, UniProt Q13043)).
It gave 93% for remaining binding (SGK3 (Homo sapiens, UniProt Q96BR1)).
MYLK (Homo sapiens, UniProt Q15746) — remaining binding: 100%.
For KIT (Homo sapiens, UniProt P10721, D816V): remaining binding read 82%.
